Published values gathered from unrelated publications.
Every numbered part comes from another study and shows a few of its results, in no order. Positions count from the first letter of the parent shown.

Study 1
Target: POU, POU domain (Salpingoeca helianthica)
Technique: Spec-seq
Molecule type: double-stranded DNA, one strand shown
Matrix: in vitro
Concentration: not given
Notes: whole probe, mean of replicates
Baseline: not given
Reading: lower = stronger binding
Quantity: relative binding energy
All sequences stand within: GAGTCGTCTCGTCAGCAC … CCGTAGAGCACTCAGGTC
Residues (chain): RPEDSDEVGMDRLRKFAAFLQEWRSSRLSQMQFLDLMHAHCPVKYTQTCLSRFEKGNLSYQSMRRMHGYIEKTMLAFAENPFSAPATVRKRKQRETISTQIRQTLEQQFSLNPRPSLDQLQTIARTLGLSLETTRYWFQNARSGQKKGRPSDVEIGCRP
ATGCACTA: 1.14 ln ratio
ATACCGAT: 1.26 ln ratio
ATGCTGGT: 1.37 ln ratio
GTCGTAAT: 0.269 ln ratio
ATTGCAAT: 0.966 ln ratio
ATGCGTTG: 1.34 ln ratio
ATGCACCA: 1.01 ln ratio
GAGGTAAT: 0.911 ln ratio

Study 2
Target: Centromere-binding protein 1, full length, N-terminal tag (CBF1, Saccharomyces cerevisiae, UniProt P17106, residues 1-351)
Chain of UniProt P17106 (whole entry, looked up): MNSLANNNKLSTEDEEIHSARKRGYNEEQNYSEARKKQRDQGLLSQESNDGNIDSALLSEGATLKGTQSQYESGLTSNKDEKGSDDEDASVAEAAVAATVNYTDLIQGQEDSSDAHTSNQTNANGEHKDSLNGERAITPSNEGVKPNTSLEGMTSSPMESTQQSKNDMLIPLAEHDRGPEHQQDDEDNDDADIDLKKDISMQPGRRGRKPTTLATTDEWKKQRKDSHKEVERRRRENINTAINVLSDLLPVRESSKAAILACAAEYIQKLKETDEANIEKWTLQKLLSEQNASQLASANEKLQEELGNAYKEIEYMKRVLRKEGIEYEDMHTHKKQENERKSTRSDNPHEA
Technique: protein-binding microarray
Molecule type: double-stranded DNA, one strand shown
Matrix: in vitro
Concentration: 0.8 µM
Notes: whole 60-bp probe, no competitor
Reading: higher = stronger binding
Quantity: fluorescence intensity
All sequences stand within: … GTCTTGATTCGCTTGACGCTGCTG
CTAAGCATGTATGATCATGATGATGCAAAAATTTTC: 557 a.u.
GAAACTTGAATATACCACATGAAAGCTAACCAATAG: 554 a.u.
CTATTAGTAGTGTGTCACCCGGATCAGCAAAATTTC: 567 a.u.
GAATACTTTATATGACTGATGATGATGTAACAATAG: 592 a.u.
CTAGGATATAATATTCATGTGGATTTTTAAGAATTC: 541 a.u.
CTAAATGATTCGTATCACATGTTTTTCTATCGTTTC: 2540 a.u.
GAACGCAAACGAACACACGTTTTGTTCACTCCTTAG: 527 a.u.
CTAAAAGCTTGATAGAGGGTGACATTTGCTAGATTC: 491 a.u.

Study 3
Target: MAFK, bZIP domain (human)
Technique: DHFR protein complementation
Matrix: yeast
Notes: single substitutions, most at no-binding floor
Baseline: wild-type JUN-FOS pair
Reading: higher = stronger binding
Quantity: binding fitness
Parent: JUN, bZIP domain (human); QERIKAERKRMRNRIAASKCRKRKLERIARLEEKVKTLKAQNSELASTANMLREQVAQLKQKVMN; partner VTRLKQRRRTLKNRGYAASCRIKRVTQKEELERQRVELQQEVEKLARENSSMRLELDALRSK
E33N: -1.46 natural log
A29G: -1.48 natural log
A29W: -1.39 natural log
K36E: -1.49 natural log
L31T: -1.53 natural log
K34N: -1.51 natural log
S43E: -1.29 natural log
A57R: -1.49 natural log

Mixed results
Parent: viral docking peptide; TSVRRALFTGGSD
TSVIRALFTGGSD [R4I]  normalised enrichment score (CCNF, cyclin fold, Cln2 fusion (human); yeast growth competition, sequencing; yeast; strong parent motif; baseline: not given, higher = stronger binding): 6.79

Excerpt of the above (study 3):
A29W: -1.39 natural log
K36E: -1.49 natural log
